# Results gathered from unrelated publications.
# Protocols differ between the studies behind these lines. ± gives the spread as reported.
# Organism: influenza A virus
SMILES,effect on,technique,cell line,strain,measurement,value
NC12CC3CC(CC(C3)C1)C2,viral replication,MTS viability,MDCK,H1N1,EC50,25.4 ± 0.54 µM
O=C1Nc2ccccc2/C1=N/NC(=S)N/N=C1\C(=O)Nc2ccccc21,cytopathic effect,visual CPE score,MDCK,H1N1,EC50,72 ± 27 µM
C[Si](C)(C)c1ccc(CNC23CC4CC(CC(O)(C4)C2)C3)cc1,,,,H1N1 and H3N2 clinical isolates,EC50,0.6 to 1.2 µM
NC(=O)c1ncn([C@@H]2O[C@H](CO)[C@@H](O)[C@H]2O)n1,viral replication,,,A/Hanfang/359/95 (H3N2),IC50,0.97 µM
NC12CC3CC(CC(C3)C1)C2,cytopathic effect,MTS,MDCK,H1N1,EC50,3.2 µM
O=C(O)[C@H]1C2CCC(CC2)[C@@H]1Nc1nc(-c2c[nH]c3ncc(F)cc23)ncc1F,viral replication,,A549,H1N1 PR8-GLuc,EC90,0.027 ± 0.01 µM
CC(N)C12CC3CC(CC(C3)C1)C2 (stereo not shown),viral replication,MTS viability,MDCK,H1N1,EC50,9.2 ± 0.32 µM
Nc1nc(P(=O)(O)O)nc(N)c1Cl,viral replication,,,"H1N1, H3N2",EC50,28 to 50 µM
NC(=O)c1ncn([C@@H]2O[C@H](CO)[C@@H](O)[C@H]2O)n1,cytopathic effect,visual CPE score,MDCK,H1N1,EC50,2.5 ± 0.5 µM
O=C(O)[C@H]1C2C=CC(CC2)[C@@H]1Nc1nc(-c2c[nH]c3ncc(F)cc23)nc2sccc12 (stereo partly shown),viral replication,,A549,H1N1 PR8-GLuc,EC50,0.006 µM
